Experimental data pooled from the literature.
Protocols differ between the studies behind these lines. ± marks the error that the study gave.

CO/C(=C\C(=O)c1ccc2occc2c1OC)c1ccccc1  viability (differentiated SH-SY5Y; MTT; 10 µM; baseline: control): 98.4 ± 3.1%
CC(=O)N[C@@H](CO)C(=O)N[C@@H](CC(=O)O)C(=O)N[C@@H](CCCCNC(=O)CCCC[C@@H]1SC[C@@H]2NC(=O)N[C@@H]21)C(=O)N1CCC[C@H]1C(=O)O  reduction of cellular uptake (A549; flow cytometry; 1 mg/mL, 2 h, serum-free, added: NaN3 10 mM; baseline: no inhibitor): > 80%
O=C(NC12CC3CC(CC(C3)C1)C2)N1CCCC2=CC3CC(CN4CCCCC34)C21 (stereo not drawn)  CC50 (Huh-7; cytotoxicity): > 267 µM
COC(=O)C1CN1S(=O)(=O)c1ccc(N(C)C)cc1 (stereo not drawn)  IC50 (Balb/c 3T3 fibroblasts; cytotoxicity, neutral red uptake; DMEM with 5% FBS; 24 h): 130 ± 6 µM
COc1cc2c(c3oc(-c4ccccc4)cc(=O)c13)C=CC(C)(C)O2  viability (differentiated SH-SY5Y; MTT; 1 µM; baseline: control): 103 ± 2.7%
CC[C@H](C)[C@H](NC(=O)CNC(=O)[C@H](CCCNC(=N)N)NC(=O)[C@H](CCCCN)NC(=O)CNC(=O)[C@H](CC(N)=O)NC(=O)CNC(=O)CNC(=O)CNC(=O)[C@H](CC(C)C)NC(=O)[C@H](C)NC(=O)CNC(=O)[C@H](Cc1c[nH]c2ccccc12)NC(=O)[C@H](Cc1ccc(O)cc1)NC(=O)CNC(=O)[C@H](CCCNC(=N)N)NC(=O)[C@H](CCSC)NC(=O)CNC(=O)[C@H](CCCCN)NC(=O)[C@H](CC(N)=O)NC(=O)[C@H](Cc1ccccc1)NC(=O)[C@H](CCCCN)NC(=O)[C@@H](N)CC(N)=O)C(=O)N[C@@H](CCCNC(=N)N)C(=O)NCC(=O)N[C@@H](Cc1ccc(O)cc1)C(=O)N[C@@H](CC(=O)O)C(=O)O  cytotoxicity (SK-BR-3; MTT; 1 nM to 10 µM, 24 h): not toxic
COC(=O)C1CN1S(=O)(=O)c1ccc(C)cc1 (stereo not drawn)  IC50 (Balb/c 3T3 fibroblasts; cytotoxicity, neutral red uptake; DMEM with 5% FBS; 24 h): 46 ± 10 µM
N=C(N)NCCC[C@@H]1NC(=O)[C@H](Cc2csc3ccccc23)NC(=O)[C@@H](Cc2ccccc2)NC(=O)[C@H](Cc2ccccc2)NC(=O)[C@H](CCC(=O)NCCOCCOCC(=O)N[C@@H](CCCCNC(=O)c2ccc3c(c2)C(=O)OC32c3ccc4cc(O)ccc4c3Oc3c2ccc2cc(O)ccc32)C(N)=O)NC(=O)[C@@H](CCCNC(=N)N)NC(=O)[C@H](CCCNC(=N)N)NC(=O)[C@@H](CCCNC(=N)N)NC1=O  cellular uptake (HeLa; flow cytometry; 0.5 µM, 2 h, 1% FBS; baseline: CPP12): 94 ± 10%
CC1(C)C=Cc2c(ccc3c(=O)cc(-c4ccccc4)oc23)O1  viability (differentiated SH-SY5Y; MTT; 100 µM; baseline: control): 79.3 ± 3%
CCCCn1cc(C(=O)O)c(=O)c2cc(F)c3c(nnn3-c3cccc(Cl)c3)c21  IC50 (PANC-1; cell growth or viability, SRB): 55.7 µM
NC(=O)c1ccc(C(=O)NOCc2ccc(Sc3cccc(Cl)c3)c(C(F)(F)F)c2)cc1  cytotoxicity (Panc02 cells (mouse); CCK-8; 100 µM): not toxic
CN(C)c1ccc2c(c1)Oc1cc(N(C)C)ccc1C21OC(=O)c2cc(C(=O)NCC(=O)N[C@H](CCCNC(=N)N)C(=O)N[C@H](CCCCN)C(=O)N[C@H](CCCCN)C(=O)N[C@H](CCCNC(=N)N)C(=O)N[C@H](CCCNC(=N)N)C(=O)N[C@H](CCC(N)=O)C(=O)N[C@H](CCCNC(=N)N)C(=O)N[C@H](CCCNC(=N)N)C(=O)N[C@H](CCCNC(=N)N)C(=O)O)ccc21  cellular uptake (caveolin-1 KO mouse endothelioma; 10 µM, 37 °C, TAMRA-labelled; baseline: wild type): no effect
CC(C)(CO)NCC1=C(O)C(=O)c2ccccc2C1=O  cytotoxicity (BGM cells; MTT; concentration not given): toxic
CC(C)C[C@H](NC(=O)[C@H](Cc1c[nH]cn1)NC(=O)[C@H](Cc1ccc(O)cc1)NC(=O)[C@H](CCCNC(=N)N)NC(=O)[C@H](Cc1ccc(O)cc1)NC(=O)[C@H](CCCCN)NC(=O)[C@@H](N)CCCCN)C(=O)N[C@@H](CCCCN)C(=O)N1CCC[C@H]1C(=O)N[C@@H](Cc1ccccc1)C(=O)NCCCC[C@H](NC(=O)[C@H](Cc1ccccc1)NC(=O)[C@@H]1CCCN1C(=O)[C@H](CCCCN)NC(=O)[C@H](CC(C)C)NC(=O)[C@H](Cc1c[nH]cn1)NC(=O)[C@H](Cc1ccc(O)cc1)NC(=O)[C@H](CCCNC(=N)N)NC(=O)[C@H](Cc1ccc(O)cc1)NC(=O)[C@H](CCCCN)NC(=O)[C@@H](N)CCCCN)C(N)=O  cytotoxicity (Swiss mouse peritoneal macrophages; MTT; concentration not given): not toxic
COc1c(C(=O)/C=C/c2ccccc2)ccc2occc12  viability (differentiated SH-SY5Y; MTT; 100 µM; baseline: control): 15.9 ± 3%

Repeated from above:
CC(C)(CO)NCC1=C(O)C(=O)c2ccccc2C1=O  cytotoxicity (BGM cells; MTT; concentration not given): toxic
